Measurements collected from several papers.
Every numbered part comes from another study and shows a few of its results, in no order. “And” joins repeats or separate records; there may be more than shown.
Chain of UniProt Q8WXR4 (whole entry, looked up): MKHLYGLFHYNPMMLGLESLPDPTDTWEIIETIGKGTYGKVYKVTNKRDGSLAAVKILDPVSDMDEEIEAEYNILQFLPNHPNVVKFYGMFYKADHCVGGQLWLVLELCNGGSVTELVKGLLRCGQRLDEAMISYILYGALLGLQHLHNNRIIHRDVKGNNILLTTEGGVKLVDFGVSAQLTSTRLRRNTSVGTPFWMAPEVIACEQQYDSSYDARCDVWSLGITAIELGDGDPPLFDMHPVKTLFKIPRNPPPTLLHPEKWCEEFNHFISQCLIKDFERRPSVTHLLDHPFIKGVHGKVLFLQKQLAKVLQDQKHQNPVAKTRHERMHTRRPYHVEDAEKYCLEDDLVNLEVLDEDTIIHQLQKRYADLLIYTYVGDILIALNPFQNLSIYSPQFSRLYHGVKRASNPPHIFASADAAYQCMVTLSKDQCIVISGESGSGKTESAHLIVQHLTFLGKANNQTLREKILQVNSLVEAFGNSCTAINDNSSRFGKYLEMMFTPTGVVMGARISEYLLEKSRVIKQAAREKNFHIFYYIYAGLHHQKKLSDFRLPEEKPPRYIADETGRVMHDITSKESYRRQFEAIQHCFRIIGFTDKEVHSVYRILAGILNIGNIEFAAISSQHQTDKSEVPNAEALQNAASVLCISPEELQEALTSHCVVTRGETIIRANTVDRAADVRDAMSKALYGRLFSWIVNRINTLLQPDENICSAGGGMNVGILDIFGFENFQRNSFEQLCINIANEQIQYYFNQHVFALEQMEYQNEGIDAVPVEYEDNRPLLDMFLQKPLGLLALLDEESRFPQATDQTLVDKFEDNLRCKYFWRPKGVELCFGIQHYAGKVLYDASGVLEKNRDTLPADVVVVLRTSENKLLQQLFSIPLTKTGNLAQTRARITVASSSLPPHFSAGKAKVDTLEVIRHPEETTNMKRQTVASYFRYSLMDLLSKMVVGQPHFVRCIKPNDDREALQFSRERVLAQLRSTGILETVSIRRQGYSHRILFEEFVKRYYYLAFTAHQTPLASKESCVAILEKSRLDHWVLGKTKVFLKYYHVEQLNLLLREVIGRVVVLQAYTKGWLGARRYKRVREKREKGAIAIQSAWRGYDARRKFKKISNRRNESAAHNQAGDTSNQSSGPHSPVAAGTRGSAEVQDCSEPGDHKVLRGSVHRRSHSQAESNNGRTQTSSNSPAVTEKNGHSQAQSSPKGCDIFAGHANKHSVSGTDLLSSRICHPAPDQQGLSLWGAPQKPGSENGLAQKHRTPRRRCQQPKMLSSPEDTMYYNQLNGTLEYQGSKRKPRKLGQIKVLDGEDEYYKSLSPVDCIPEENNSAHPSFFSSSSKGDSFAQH
Chain of UniProt Q9UF33 (whole entry, looked up): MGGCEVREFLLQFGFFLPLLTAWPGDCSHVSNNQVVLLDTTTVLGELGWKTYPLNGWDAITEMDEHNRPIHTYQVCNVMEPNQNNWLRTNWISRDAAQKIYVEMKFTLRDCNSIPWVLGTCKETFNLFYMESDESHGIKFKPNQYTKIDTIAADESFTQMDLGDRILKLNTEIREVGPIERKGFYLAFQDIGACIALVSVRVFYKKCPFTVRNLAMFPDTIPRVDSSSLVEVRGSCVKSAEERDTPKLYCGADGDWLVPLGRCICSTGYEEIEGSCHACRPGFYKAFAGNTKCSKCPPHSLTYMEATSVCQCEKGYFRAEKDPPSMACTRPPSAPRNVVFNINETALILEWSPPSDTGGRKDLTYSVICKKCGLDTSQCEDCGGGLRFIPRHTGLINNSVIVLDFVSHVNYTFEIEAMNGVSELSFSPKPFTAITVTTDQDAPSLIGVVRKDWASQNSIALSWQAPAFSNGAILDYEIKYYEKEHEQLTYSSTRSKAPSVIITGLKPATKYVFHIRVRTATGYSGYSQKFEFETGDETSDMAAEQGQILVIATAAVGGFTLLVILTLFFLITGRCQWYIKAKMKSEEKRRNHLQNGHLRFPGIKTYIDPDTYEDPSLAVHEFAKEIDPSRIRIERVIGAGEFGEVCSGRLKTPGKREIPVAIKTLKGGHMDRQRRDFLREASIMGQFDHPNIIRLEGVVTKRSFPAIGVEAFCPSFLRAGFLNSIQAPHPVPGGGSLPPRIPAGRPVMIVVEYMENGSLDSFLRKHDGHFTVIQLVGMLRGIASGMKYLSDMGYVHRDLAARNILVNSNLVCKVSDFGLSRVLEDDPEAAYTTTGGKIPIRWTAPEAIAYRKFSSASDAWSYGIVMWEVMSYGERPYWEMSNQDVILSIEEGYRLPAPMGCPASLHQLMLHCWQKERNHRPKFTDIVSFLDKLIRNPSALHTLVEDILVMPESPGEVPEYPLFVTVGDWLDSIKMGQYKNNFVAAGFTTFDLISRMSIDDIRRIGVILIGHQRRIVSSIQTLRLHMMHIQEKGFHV
Chain of UniProt P06239 (whole entry, looked up): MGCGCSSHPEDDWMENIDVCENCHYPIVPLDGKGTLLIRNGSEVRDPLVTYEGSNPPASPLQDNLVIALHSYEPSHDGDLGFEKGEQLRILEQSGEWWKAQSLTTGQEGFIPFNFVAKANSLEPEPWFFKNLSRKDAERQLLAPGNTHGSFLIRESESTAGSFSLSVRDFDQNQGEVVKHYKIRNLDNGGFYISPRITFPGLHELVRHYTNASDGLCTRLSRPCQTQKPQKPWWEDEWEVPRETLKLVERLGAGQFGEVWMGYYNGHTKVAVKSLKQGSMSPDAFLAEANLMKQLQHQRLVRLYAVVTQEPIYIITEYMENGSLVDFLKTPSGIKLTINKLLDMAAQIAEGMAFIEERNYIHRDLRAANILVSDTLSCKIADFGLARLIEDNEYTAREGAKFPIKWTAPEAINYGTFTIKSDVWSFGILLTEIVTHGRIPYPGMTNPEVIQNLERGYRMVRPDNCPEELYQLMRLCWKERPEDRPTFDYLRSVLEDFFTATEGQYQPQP
Chain of UniProt P22607 (whole entry, unmodified, looked up): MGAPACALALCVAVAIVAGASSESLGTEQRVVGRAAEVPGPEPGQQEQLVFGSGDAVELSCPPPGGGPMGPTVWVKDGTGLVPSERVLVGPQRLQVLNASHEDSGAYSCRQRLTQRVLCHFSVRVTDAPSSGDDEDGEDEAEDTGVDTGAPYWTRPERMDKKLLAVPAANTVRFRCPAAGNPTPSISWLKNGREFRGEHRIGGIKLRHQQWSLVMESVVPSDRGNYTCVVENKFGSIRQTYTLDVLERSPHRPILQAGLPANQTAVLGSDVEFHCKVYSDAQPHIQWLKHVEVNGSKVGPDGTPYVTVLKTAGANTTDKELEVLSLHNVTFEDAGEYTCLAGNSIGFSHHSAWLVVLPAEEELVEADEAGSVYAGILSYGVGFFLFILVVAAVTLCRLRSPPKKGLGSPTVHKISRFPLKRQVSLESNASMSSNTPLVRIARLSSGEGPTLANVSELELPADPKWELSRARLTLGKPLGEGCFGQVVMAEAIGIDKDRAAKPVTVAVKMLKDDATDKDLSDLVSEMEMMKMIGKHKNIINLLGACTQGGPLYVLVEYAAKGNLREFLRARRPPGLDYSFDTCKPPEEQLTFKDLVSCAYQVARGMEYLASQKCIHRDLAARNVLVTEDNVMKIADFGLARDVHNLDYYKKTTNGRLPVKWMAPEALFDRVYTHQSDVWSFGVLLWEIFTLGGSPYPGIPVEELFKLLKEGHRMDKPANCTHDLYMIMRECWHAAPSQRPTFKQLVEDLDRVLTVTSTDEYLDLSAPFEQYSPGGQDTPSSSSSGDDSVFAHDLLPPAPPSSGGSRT
Chain of UniProt Q9NWZ3 (whole entry, looked up): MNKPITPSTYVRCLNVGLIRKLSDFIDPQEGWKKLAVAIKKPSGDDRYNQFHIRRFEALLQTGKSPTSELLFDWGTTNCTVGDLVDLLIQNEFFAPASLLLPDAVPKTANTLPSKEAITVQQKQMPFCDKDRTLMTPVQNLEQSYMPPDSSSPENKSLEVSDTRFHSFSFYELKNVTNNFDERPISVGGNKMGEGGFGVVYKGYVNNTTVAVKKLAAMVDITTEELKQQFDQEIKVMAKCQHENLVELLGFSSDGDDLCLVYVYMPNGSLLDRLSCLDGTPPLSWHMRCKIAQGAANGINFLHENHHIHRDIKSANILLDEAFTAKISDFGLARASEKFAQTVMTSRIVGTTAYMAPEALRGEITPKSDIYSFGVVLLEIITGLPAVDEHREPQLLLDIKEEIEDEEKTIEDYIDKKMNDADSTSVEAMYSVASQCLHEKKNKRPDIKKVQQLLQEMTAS

Set 1
Target: Fibroblast growth factor receptor 2 (FGFR2, Homo sapiens, UniProt P21802)
Chain of UniProt P21802 (whole entry, looked up): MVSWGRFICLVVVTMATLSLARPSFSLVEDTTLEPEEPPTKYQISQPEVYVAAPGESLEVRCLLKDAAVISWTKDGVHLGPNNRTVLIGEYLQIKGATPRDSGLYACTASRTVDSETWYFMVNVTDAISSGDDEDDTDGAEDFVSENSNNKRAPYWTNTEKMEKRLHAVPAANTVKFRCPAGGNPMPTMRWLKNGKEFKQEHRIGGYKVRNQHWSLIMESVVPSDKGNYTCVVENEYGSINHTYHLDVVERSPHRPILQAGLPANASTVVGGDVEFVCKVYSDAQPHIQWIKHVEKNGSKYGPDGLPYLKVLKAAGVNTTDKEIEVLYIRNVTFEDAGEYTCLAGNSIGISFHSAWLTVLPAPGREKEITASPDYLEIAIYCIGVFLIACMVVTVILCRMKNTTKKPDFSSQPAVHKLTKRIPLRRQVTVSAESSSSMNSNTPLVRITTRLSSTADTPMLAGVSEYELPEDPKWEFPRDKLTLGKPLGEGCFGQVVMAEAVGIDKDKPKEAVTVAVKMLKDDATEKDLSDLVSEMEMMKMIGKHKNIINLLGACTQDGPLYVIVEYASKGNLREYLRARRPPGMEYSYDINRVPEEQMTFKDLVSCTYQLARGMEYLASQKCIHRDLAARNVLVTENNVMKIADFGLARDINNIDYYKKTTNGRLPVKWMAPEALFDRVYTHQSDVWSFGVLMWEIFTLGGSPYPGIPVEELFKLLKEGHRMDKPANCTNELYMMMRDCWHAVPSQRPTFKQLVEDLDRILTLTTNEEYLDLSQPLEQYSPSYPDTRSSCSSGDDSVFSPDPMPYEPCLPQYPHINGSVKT
Observed: enzyme activity
Action: inhibitor
Concentration: 0.5 µM
Baseline: control
Endpoint: remaining activity
CC(C)n1cnc2c(Nc3cccc(Cl)c3)nc(NCCO)nc21: 94.5%
N#CC(c1ccnc(NCCc2cccnc2)n1)c1nc2ccccc2s1 (stereo not drawn): 102%
O=Nc1c(-c2c(O)[nH]c3ccccc23)[nH]c2ccccc12: 92.1%
O=C(c1ccccc1)c1ccc(N2CCOCC2)cc1O: 99.1%

Set 2
Cell line: mouse MPNST tumor cells
Method: high-content immunofluorescence imaging
Refers to: nuclear SOX9
Concentration: 10 µM
Time: 12 h
Notes: mean of 2 replicates
Baseline: DMSO control
Direction: higher = more nuclear SOX9
Endpoint: nuclear SOX9 intensity
Cc1cc(-c2nc(-c3ccc(OC(F)(F)F)cc3)no2)nn1Cc1ccnc(N2CCN(C3CC3)CC2)c1: 180 % of DMSO
Cn1ccc2cc3c(cc21)CCN3C(=O)Nc1cccnc1: 88.4 % of DMSO
COc1cc(C(=O)NCc2ccc(OCCN(C)C)cc2)cc(OC)c1OC: 99.9 % of DMSO and 110 % of DMSO
C[C@]12CC[C@@H]3c4ccc(O)cc4C[C@@H](CCCCCCCCC[S+]([O-])CCCC(F)(F)C(F)(F)F)[C@H]3[C@@H]1CC[C@@H]2O (stereo partly drawn): 133 % of DMSO
CN1CCC(Nc2ncc3ncnc(Nc4ccc(F)c(Cl)c4)c3n2)CC1: 148 % of DMSO
S=c1[nH]cnc2nc[nH]c12: 110 % of DMSO
Nc1nc(=S)c2ncn([C@@H]3O[C@H](CO)[C@@H](O)[C@H]3O)c2[nH]1: 109 % of DMSO
O=C(Oc1nsnc1N1CCCCC1)N1CCOCC1: 101 % of DMSO
C#CCNc1nccc(-c2ccc(-n3ccnc3)cc2)n1: 94.8 % of DMSO

Set 3
Structure (SMILES): O=C(NC[C@@H]1[C@H]2CN(C(=O)OCc3cc(C(F)(F)F)cc(C(F)(F)F)c3)C[C@@H]12)c1ccc2[nH]nnc2c1
Observed: cell-free assay
Method: competition with immobilised ligand
Concentration: 1 µM
Endpoint: remaining binding
Tyrosine-protein kinase ABL1, phosphorylated (ABL1, Homo sapiens, UniProt P00519, T315I): 93%
BTK (Homo sapiens, UniProt Q06187): 100%
Myosin-IIIb (MYO3B, Homo sapiens, UniProt Q8WXR4): 100%
EPHA6 (Homo sapiens, UniProt Q9UF33): 69%
PHKG2 (Homo sapiens, UniProt P15735): 100%
GRK3 (Homo sapiens, UniProt P35626): 90%
CDK3 (Homo sapiens, UniProt Q00526): 94%
LCK (Homo sapiens, UniProt P06239): 100%
GRK7 (Homo sapiens, UniProt Q8WTQ7): 100%
EPHB4 (Homo sapiens, UniProt P54760): 100%
IRAK4 (Homo sapiens, UniProt Q9NWZ3): 100%
FGFR3 (Homo sapiens, UniProt P22607, G697C): 92%

Set 4
Host: human
Matrix: microsomes or S9
Concentration: 2 µM
Time: 0.5 h
Endpoint: remaining compound
O=S(=O)(Cc1cc(F)ccc1F)NCCn1ccc(-c2ccsc2)n1: 1.62%
CCN(CC)c1ncc(CNc2ccc(F)cn2)s1: 17.9%
CC(=O)c1ccc2[nH]c3c(C(C)=O)cc(Cl)cc3c2c1: > 99.9%
COC(=O)c1ccccc1NC(=O)CSc1nnnn1-c1ccc(OCc2ccccc2)cc1: 24.3%
COC(=O)c1ccc(C)c(NC(=O)CN(C)Cc2ccc(Cl)s2)c1: 1.04%
O=C(Nc1ccc(Nc2ccc(-n3cccn3)nn2)cc1)c1cccc(Cl)c1: 51.2%
Clc1ccc(-c2nc3ncccn3c2Nc2ccccc2)cc1: 31.4%
O=c1oc2ncn(-c3ccccc3)c2c2ccccc12: 23.1%

Excerpt of the above (set 2):
CN1CCC(Nc2ncc3ncnc(Nc4ccc(F)c(Cl)c4)c3n2)CC1: 148 % of DMSO
S=c1[nH]cnc2nc[nH]c12: 110 % of DMSO
Cn1ccc2cc3c(cc21)CCN3C(=O)Nc1cccnc1: 88.4 % of DMSO
Nc1nc(=S)c2ncn([C@@H]3O[C@H](CO)[C@@H](O)[C@H]3O)c2[nH]1: 109 % of DMSO
COc1cc(C(=O)NCc2ccc(OCCN(C)C)cc2)cc(OC)c1OC: 99.9 % of DMSO and 110 % of DMSO
